# Measurements gathered from unrelated publications.
# Each numbered part is a random draw from the data of one study; scales do not carry over between parts.

# Study 1 — method: RNA Bind-n-Seq; molecule type: RNA; sample: in vitro; concentration: 365 nM; relative to: no-protein control; direction: higher = stronger binding
# Target: RNA binding protein fox-1 homolog 2, RRM domain, GST-SBP tag (RBFOX2, Homo sapiens, UniProt O43251-10, residues 100-194)
# Notes: natural RNA segment, single round, ends assumed
# Constant ends, left off below: GGGAGUUCUACAGUCCGACGAUC … UGGAAUUCUCGGGUGCCAA
# Construct (chain): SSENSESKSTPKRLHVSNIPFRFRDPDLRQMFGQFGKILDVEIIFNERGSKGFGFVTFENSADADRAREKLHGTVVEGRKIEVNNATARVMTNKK
Sequence,RBNS enrichment (R)
CAUGUCGUAAGGCAGCAGCUGUGCCAGGAUAGCUGGGUCCAUUCAGAGCACCUUGAGAAGUGUUGCAGGGAGGUGUUAAGAAGAGAACUCUGUGCAAACAGUGAUGGAAG,1.05
GUAGUCUGGUUGUGAAGAACACUGAGUCAGUUGAUGGUGUGUCUUGUCCUCCAGACCAGGCAGCAACAUGGUAUUUAUUUUAAUCAUUAAAGUACAACAUGAGUAGUACA,0.362
CACACCUCAGUGGAAGUAGCAGAAUGCCUCCCUGACCCGGGGCUCUUAGGGACUCUUGCUGCUAUGCUUGCCAGCAAAUGGCAAUCAAGGGACAAUUAGCCACUUGCCCC,0.692
AGUCACGAAGCUAUAUGCCAGGCUGCAAAGGAUGUCAAUAGCAUGUGGCAAUGGGGGUUUUUAUUGCCAUUCAUUCUUUAGCAACCUGGACUGCCAUCUUGGCAGACCUG,9.29
AACUCAACUCCCUGACACCCUAUCCCCCCAUCUAUUCUUAAACUCUUUCAUAUAUAUUUUCACUUCCUAAUUCUAGUGUACAUAUCCCUGUAUAUCAUGGUAUCUGUGGG,0.531
UUACGUUACAUUGAAACCUGCUGCUGCUGUGACUGUGAGGAGGGUGGGAGUGUGGAUGGGGAGGAAGGUUCUAGGCUCUCUUAUUUUUCUCAUUUCCCAAUGCCUCUCUG,0.664
UCUUUAUAAAGUGGUAAAAGCCUGAAAUUCAGGGCAGCUCUCCAUGAGGUGCUGAAGGGCUCUUUUCAUAAGAAGCUAAGGCACUGCUGCCUGCCCCAGGUGUCCCGCUC,0.277
AAUGGCCAUCCUCAGCAGGGUGGAGGGAGUGUGCGAGAAACCAGACACUUUGGUUUCUGUAAUCUUCACAGUGUUUAGGAAAAGAGAAAACAAAUCAAACAGCGCACACA,0.349

# Study 2 — method: universal PBM; molecule type: double-stranded DNA, one strand shown; sample: in vitro; concentration: 600 nM; direction: higher = stronger binding
# Target: Sal-like protein 4, full length isoform A (SALL4, Homo sapiens, UniProt Q9UJQ4, residues 1-1053)
# Chain of UniProt Q9UJQ4 (whole entry, looked up): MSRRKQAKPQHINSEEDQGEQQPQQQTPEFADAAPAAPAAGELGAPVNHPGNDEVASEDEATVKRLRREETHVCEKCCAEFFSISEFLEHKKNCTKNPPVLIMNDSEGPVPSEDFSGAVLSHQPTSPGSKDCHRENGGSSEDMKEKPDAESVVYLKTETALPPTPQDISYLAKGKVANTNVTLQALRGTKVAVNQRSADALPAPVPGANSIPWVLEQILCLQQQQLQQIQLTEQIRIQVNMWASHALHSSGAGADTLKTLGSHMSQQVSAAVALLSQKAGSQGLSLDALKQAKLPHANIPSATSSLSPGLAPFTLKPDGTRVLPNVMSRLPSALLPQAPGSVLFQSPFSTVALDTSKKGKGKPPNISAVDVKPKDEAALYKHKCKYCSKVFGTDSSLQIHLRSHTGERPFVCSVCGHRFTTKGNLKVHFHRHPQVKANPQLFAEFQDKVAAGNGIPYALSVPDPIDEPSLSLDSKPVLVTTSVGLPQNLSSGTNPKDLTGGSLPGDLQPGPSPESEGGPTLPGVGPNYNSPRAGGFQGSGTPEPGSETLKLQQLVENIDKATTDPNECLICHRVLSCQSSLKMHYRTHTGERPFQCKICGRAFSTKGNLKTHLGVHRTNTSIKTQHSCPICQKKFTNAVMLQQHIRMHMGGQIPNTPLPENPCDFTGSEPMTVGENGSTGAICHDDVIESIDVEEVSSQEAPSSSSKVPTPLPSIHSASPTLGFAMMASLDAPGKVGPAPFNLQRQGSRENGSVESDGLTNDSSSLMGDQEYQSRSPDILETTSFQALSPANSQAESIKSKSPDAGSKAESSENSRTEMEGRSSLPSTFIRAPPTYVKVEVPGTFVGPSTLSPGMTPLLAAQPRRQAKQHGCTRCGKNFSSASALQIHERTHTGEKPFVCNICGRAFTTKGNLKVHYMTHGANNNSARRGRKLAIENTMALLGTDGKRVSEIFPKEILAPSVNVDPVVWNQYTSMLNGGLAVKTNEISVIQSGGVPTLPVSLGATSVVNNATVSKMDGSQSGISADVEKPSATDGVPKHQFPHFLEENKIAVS
# Notes: 8-mer, flanks averaged, mean of replicates
Sequence,E-score
CTCCACCA,-0.21
ACAATGCG,-0.0183
CCGATGGC,-0.312
ACCCCTAT,-0.117
AGGGCCGG,-0.439
CTGGCGAA,-0.168
CTTGTCCC,-0.123

# Study 3 — method: Sort-seq; item: YFP reporter; sample: E. coli; notes: PhoQ-PhoP variant library; added: 10 µM Mg2+; relative to: high Mg2+ state; direction: higher = stronger signaling
# Substance: PhoQ, residues 284 288 289 292 302 303 GANMMA
target,fold induction
"PhoP, residues 12 14 15 18 19 QYFSL (Escherichia coli, UniProt P23836)",2.76
"PhoP, residues 12 14 15 18 19 NYFRM (Escherichia coli, UniProt P23836)",3.93
"PhoP, residues 12 14 15 18 19 TQALL (Escherichia coli, UniProt P23836)",6.76

# Study 4 — method: competition protein-binding microarray; molecule type: double-stranded DNA, one strand shown; sample: in vitro; concentration: 2 µM; added: Pho4 competitor, 0.05 µM; direction: higher = stronger binding; constant ends, left off below: … GTCTTGATTCGCTTGACGCTGCTG
# Target: Centromere-binding protein 1, full length, His-tagged (CBF1, Saccharomyces cerevisiae, UniProt P17106, residues 1-351)
# Chain of UniProt P17106 (whole entry, looked up): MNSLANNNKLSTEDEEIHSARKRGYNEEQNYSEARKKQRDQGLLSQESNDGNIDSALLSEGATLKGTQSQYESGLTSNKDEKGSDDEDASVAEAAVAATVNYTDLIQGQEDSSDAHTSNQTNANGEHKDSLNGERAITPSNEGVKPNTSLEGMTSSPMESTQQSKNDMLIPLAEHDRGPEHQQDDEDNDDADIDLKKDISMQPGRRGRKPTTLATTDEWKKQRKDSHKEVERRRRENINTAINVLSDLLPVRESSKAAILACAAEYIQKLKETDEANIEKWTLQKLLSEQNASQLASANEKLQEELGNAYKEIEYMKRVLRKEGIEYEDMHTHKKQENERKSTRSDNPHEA
# Notes: whole 60-bp probe, lowest competitor level
Sequence,fluorescence intensity [a.u.]
CTTTCCCGATCTTGTCACAATACTTTAGCACATTTG,85.4
GCAATCCGAGCTTGACACATGGTTTCTGGAGGTCTG,90.2
CCTTGTTCCGGAGCGCACATGGCATTTCAAGGTCAA,99.5
CATGAAATTGCTTACGTCGTGCCAGATTACATATAG,96.4
CGAAGTTATTTGTCTAGCATGATAAGGTACAATGCC,75.6
CGTCCTAGCGATTGATGGGTGGGTGCCATGAGGAAG,65.8
GTAAGACCACAATCCATCGTGTCGGCCCCATGTCGG,51.5

# Some of these lines once more (study 1):
Sequence,RBNS enrichment (R)
CAUGUCGUAAGGCAGCAGCUGUGCCAGGAUAGCUGGGUCCAUUCAGAGCACCUUGAGAAGUGUUGCAGGGAGGUGUUAAGAAGAGAACUCUGUGCAAACAGUGAUGGAAG,1.05
UUACGUUACAUUGAAACCUGCUGCUGCUGUGACUGUGAGGAGGGUGGGAGUGUGGAUGGGGAGGAAGGUUCUAGGCUCUCUUAUUUUUCUCAUUUCCCAAUGCCUCUCUG,0.664
AACUCAACUCCCUGACACCCUAUCCCCCCAUCUAUUCUUAAACUCUUUCAUAUAUAUUUUCACUUCCUAAUUCUAGUGUACAUAUCCCUGUAUAUCAUGGUAUCUGUGGG,0.531
AGUCACGAAGCUAUAUGCCAGGCUGCAAAGGAUGUCAAUAGCAUGUGGCAAUGGGGGUUUUUAUUGCCAUUCAUUCUUUAGCAACCUGGACUGCCAUCUUGGCAGACCUG,9.29
